Measured values collected from several papers.
A part holds a random share of what one study measured.
UniProt P46734, sequence (whole entry, looked up): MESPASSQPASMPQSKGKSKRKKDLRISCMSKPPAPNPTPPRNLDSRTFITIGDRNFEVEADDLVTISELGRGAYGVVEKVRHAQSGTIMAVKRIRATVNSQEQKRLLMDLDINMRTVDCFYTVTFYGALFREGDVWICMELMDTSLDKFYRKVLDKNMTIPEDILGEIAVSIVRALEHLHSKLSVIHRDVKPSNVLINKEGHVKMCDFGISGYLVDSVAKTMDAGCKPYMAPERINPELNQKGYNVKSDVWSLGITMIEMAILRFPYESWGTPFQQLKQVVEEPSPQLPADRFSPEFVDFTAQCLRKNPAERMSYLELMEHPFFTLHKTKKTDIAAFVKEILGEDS
UniProt P41743, sequence (whole entry, looked up): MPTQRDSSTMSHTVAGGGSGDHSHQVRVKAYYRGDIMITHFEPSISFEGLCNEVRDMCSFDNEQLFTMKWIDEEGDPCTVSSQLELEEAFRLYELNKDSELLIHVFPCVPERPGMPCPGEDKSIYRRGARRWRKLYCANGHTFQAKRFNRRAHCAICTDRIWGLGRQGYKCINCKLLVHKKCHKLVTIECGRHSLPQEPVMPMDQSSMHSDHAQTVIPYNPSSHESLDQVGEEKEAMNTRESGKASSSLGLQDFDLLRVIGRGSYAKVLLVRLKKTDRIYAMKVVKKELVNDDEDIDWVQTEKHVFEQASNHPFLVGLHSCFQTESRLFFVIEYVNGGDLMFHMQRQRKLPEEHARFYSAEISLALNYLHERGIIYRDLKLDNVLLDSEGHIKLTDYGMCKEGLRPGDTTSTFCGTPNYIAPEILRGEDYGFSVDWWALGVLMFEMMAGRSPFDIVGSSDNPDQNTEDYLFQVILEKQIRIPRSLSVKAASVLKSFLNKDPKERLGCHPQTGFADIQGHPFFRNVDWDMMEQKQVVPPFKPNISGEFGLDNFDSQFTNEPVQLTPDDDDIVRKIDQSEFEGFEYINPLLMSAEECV
UniProt Q13043, sequence (whole entry, looked up): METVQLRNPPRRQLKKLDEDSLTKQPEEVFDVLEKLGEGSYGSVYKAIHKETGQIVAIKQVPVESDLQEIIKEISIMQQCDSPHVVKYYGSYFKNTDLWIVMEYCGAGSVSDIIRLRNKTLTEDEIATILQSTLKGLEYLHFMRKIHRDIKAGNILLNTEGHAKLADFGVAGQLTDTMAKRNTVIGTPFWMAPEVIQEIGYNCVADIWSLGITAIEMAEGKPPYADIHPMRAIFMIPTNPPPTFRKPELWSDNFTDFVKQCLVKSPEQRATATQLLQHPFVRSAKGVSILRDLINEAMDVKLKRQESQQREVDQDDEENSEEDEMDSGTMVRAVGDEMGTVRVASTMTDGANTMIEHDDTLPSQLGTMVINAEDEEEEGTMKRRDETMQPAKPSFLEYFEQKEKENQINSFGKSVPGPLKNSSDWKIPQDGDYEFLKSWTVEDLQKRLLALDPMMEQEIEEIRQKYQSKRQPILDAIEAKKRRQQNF
UniProt O94768, sequence (whole entry, looked up): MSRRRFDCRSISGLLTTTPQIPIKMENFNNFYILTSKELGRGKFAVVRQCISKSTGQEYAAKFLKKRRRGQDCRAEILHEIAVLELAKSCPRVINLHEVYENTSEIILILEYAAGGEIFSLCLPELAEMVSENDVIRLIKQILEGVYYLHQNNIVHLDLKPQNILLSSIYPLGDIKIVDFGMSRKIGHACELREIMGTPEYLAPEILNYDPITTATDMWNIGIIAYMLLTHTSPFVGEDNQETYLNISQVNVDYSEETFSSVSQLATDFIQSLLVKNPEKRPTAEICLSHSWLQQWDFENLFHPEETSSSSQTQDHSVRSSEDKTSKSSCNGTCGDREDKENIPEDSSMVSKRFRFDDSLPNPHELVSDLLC
UniProt Q00526, sequence (whole entry, looked up): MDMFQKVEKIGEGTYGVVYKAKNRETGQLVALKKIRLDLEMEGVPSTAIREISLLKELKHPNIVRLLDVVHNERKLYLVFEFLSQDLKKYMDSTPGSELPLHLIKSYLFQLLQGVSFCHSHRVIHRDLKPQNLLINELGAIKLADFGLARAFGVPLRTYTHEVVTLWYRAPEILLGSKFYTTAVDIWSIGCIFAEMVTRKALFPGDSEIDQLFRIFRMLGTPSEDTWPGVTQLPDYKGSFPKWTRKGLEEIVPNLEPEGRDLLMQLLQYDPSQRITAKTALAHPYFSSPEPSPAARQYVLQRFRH

Block 1
SMILES: O=C(Nc1ccccc1)Nc1cccc(Oc2ccc3nccn3n2)c1
target	read-out	technique	tested at	relative to	remaining binding [%]
Rho-associated protein kinase 2 (ROCK2, Homo sapiens, UniProt O75116)	binding		1 µM		100
Proto-oncogene tyrosine-protein kinase receptor Ret (RET, Homo sapiens, UniProt P07949)	binding	competition with immobilised ligand	1 µM		92
Calcium-dependent protein kinase 1 (CDPK1, Plasmodium falciparum, UniProt P62344)	binding		1 µM		81
STE20-like serine/threonine-protein kinase (SLK, Homo sapiens, UniProt Q9H2G2)	binding	competition with immobilised ligand	1 µM		88
Serine/threonine-protein kinase TAO1 (TAOK1, Homo sapiens, UniProt Q7L7X3)	binding	competition with immobilised ligand	1 µM		100
Cyclin-dependent kinase 3 (CDK3, Homo sapiens, UniProt Q00526)	binding	competition with immobilised ligand	1 µM		90
Phosphatidylinositol 4-phosphate 5-kinase type-1 gamma (PIP5K1C, Homo sapiens, UniProt O60331)	binding		1 µM		51
Dual specificity mitogen-activated protein kinase kinase 3 (MAP2K3, Homo sapiens, UniProt P46734)	binding		1 µM		100
Cyclin-dependent kinase 4 (CDK4, Homo sapiens, UniProt P11802)	binding		1 µM		100
G protein-coupled receptor kinase 3 (GRK3, Homo sapiens, UniProt P35626)	binding		1 µM		100
FLT3 ITD		KINOMEscan	1000 nM	control	100
Protein kinase C iota type (PRKCI, Homo sapiens, UniProt P41743)	binding		1 µM		79
Serine/threonine-protein kinase 17B (STK17B, Homo sapiens, UniProt O94768)	binding		1 µM		99
MAP/microtubule affinity-regulating kinase 4 (MARK4, Homo sapiens, UniProt Q96L34)	binding		1 µM		91
Receptor-type tyrosine-protein kinase FLT3, autoinhibited (FLT3, Homo sapiens, UniProt P36888)	binding	competition with immobilised ligand	1 µM		100
Serine/threonine-protein kinase 4 (STK4, Homo sapiens, UniProt Q13043)	binding	competition with immobilised ligand	1 µM		100
Epidermal growth factor receptor (EGFR, Homo sapiens, UniProt P00533, L858R)	binding		1 µM		100
Serine/threonine-protein kinase Nek5 (NEK5, Homo sapiens, UniProt Q6P3R8)	binding		1 µM		100

Block 2
Target: Amine oxidase [copper-containing] 3 (AOC3, Homo sapiens, UniProt Q16853)
UniProt Q16853, sequence (whole entry, looked up): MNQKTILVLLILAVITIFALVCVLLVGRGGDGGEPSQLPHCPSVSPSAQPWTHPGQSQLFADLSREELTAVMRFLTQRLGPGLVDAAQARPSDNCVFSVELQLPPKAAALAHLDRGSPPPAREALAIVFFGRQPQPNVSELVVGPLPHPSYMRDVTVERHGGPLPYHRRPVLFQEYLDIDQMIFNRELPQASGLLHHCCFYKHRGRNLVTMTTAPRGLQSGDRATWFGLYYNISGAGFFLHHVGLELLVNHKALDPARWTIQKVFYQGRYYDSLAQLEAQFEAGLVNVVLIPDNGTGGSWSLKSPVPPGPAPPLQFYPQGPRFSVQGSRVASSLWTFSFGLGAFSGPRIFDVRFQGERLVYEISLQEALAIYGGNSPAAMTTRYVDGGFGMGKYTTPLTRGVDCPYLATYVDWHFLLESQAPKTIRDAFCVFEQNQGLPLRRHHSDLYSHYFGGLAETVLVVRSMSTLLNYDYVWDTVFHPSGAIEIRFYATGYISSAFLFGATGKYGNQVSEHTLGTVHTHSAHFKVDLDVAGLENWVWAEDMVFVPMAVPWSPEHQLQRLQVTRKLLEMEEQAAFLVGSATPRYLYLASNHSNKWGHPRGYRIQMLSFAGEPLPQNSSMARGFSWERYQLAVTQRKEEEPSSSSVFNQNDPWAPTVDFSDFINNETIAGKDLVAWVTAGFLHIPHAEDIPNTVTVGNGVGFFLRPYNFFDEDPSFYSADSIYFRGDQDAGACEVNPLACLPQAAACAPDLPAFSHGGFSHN
Read-out: enzyme activity
Mode: inhibitor
Technique: fluorescence
Compound	IC50 [nM]
NC/C(=C\F)COc1cc(Cn2c(=S)[nH]c(=O)c3[nH]cnc32)cc(C(F)(F)F)c1	1560
Cc1nc2c([nH]1)c(=O)[nH]c(=S)n2Cc1cccc(OC/C(=C/F)CN)c1	20
NC/C(=C\F)COc1cccc(Cn2c(=O)[nH]c(=O)c3[nH]cnc32)c1	5
NC/C(=C/F)COc1cccc(Cn2c(=S)[nH]c(=O)c3[nH]cnc32)c1	3
Cc1cc2c([nH]1)c(=O)[nH]c(=S)n2Cc1cccc(OC/C(=C/F)CN)c1	27

Block 3
Structure (SMILES): Cc1ccc(O)c(C)c1-c1cnc2[nH]c(-c3cnc(N4CCC(CN5CCC(c6ccc(NC7CCC(=O)NC7=O)cc6F)CC5)CC4)nc3)cc2c1C#N (centres unmarked)
Target: Membrane-associated tyrosine- and threonine-specific cdc2-inhibitory kinase (PKMYT1, Homo sapiens, UniProt Q99640)
UniProt Q99640, sequence (whole entry, looked up): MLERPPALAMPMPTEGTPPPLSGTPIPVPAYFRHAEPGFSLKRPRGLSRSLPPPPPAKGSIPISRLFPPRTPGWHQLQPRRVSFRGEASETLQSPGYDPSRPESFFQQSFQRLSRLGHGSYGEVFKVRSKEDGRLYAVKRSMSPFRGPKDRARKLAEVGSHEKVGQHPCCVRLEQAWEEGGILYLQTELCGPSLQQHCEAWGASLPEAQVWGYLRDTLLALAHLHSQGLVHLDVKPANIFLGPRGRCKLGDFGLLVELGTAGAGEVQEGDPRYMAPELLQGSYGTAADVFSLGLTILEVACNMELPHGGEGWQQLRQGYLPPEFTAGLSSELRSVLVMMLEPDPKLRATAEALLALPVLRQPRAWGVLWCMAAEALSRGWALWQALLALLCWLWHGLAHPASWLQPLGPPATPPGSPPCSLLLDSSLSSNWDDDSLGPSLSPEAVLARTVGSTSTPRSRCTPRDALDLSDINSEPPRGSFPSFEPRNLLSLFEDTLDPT
read-out	mode	technique	tested at	inhibition [%]
cell-free assay	inhibitor	TR-FRET	4.12 nM	37.9
			1 µM	97.9
cell-free assay	inhibitor	TR-FRET	37.04 nM	88.4
cell-free assay	inhibitor	TR-FRET	0.3333 µM	99
			0.01235 µM	74.2
			5.1e-05 µM	-3.84
cell-free assay	inhibitor	TR-FRET	0.1111 µM	96.3
			0.03704 µM	90.5
cell-free assay	inhibitor	TR-FRET	12.35 nM	71.7
			0.00046 µM	-2.87
			0.1111 µM	96.8
			0.00137 µM	12
			0.3333 µM	98.8

Block 4
Compound: C[C@@H]1CN(c2ccc(-c3cc(C(=O)NCCOCCOCCOCCOCCNC(=O)/C=C/c4[nH]cc(C(=O)N[C@@H](CC(N)=O)c5ccc(F)c(Cl)c5)c4-c4ccc(Cl)cc4F)ccc3F)cc2NC(=O)c2c[nH]c(=O)cc2C(F)(F)F)C[C@H](C)N1C
Read-out: thermal unfolding
Technique: differential scanning fluorimetry
Tested at: 5.5 µM
Reading: higher = more unfolded
WDR5: WD repeat-containing protein 5 (WDR5, Homo sapiens, UniProt P61964)
DCAF1: DDB1- and CUL4-associated factor 1 (DCAF1, Homo sapiens, UniProt Q9Y4B6)
UniProt Q9Y4B6, sequence (whole entry, looked up): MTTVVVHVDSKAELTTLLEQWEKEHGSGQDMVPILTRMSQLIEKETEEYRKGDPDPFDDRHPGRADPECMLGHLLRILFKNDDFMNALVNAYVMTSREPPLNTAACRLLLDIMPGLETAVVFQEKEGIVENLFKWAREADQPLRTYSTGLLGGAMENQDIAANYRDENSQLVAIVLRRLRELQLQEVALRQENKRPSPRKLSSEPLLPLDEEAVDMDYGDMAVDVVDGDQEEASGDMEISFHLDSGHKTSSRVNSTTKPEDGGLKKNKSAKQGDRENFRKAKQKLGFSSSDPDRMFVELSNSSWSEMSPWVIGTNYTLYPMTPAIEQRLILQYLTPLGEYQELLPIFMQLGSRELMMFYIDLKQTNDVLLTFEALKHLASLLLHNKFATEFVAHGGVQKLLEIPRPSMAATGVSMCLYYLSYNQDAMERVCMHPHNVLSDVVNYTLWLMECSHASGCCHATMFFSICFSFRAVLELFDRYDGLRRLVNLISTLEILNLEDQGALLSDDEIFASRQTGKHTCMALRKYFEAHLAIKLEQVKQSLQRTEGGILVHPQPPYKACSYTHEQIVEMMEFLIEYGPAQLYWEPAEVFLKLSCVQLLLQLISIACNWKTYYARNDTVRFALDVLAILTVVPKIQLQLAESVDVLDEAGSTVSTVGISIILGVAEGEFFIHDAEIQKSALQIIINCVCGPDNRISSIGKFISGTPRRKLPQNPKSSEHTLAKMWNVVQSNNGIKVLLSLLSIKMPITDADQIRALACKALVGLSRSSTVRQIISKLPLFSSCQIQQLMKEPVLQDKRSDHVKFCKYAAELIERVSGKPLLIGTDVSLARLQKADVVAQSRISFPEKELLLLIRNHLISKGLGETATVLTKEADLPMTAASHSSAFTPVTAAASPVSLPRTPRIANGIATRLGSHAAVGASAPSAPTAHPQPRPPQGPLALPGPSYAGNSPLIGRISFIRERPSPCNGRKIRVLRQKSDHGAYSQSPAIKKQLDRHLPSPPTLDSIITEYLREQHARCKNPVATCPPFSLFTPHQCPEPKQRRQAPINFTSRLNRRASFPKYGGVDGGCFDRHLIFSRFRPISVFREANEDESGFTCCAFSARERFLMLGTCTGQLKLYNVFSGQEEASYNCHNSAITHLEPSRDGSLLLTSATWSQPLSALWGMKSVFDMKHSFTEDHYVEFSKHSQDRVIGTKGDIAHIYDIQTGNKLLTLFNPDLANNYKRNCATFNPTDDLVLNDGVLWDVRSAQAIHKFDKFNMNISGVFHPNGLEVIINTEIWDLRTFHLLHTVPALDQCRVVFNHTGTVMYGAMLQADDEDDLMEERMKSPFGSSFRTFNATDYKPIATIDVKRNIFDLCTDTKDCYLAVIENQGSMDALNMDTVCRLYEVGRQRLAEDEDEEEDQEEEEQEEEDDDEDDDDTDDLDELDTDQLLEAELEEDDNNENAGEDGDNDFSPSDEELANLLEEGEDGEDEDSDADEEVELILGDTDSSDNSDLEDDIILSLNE
target	temperature	SYPRO Orange fluorescence
WDR5	52.41 °C	16800 a.u.
DCAF1	69.81 °C	56100 a.u.
WDR5	83.01 °C	48600 a.u.
WDR5	39.8 °C	13900 a.u.
DCAF1	50.6 °C	15700 a.u.
DCAF1	71.41 °C	54100 a.u.
WDR5	29 °C	12700 a.u.
WDR5	43.2 °C	15000 a.u.

Excerpt of the above (block 3):
read-out	mode	technique	tested at	inhibition [%]
			1 µM	97.9
cell-free assay	inhibitor	TR-FRET	37.04 nM	88.4
cell-free assay	inhibitor	TR-FRET	0.3333 µM	99
			0.01235 µM	74.2
			5.1e-05 µM	-3.84
cell-free assay	inhibitor	TR-FRET	0.1111 µM	96.3
			0.03704 µM	90.5
